Measured values pooled from the literature.
Numbered parts are unrelated; each lists some results of a single study.
Chain of UniProt O94804 (whole entry, looked up): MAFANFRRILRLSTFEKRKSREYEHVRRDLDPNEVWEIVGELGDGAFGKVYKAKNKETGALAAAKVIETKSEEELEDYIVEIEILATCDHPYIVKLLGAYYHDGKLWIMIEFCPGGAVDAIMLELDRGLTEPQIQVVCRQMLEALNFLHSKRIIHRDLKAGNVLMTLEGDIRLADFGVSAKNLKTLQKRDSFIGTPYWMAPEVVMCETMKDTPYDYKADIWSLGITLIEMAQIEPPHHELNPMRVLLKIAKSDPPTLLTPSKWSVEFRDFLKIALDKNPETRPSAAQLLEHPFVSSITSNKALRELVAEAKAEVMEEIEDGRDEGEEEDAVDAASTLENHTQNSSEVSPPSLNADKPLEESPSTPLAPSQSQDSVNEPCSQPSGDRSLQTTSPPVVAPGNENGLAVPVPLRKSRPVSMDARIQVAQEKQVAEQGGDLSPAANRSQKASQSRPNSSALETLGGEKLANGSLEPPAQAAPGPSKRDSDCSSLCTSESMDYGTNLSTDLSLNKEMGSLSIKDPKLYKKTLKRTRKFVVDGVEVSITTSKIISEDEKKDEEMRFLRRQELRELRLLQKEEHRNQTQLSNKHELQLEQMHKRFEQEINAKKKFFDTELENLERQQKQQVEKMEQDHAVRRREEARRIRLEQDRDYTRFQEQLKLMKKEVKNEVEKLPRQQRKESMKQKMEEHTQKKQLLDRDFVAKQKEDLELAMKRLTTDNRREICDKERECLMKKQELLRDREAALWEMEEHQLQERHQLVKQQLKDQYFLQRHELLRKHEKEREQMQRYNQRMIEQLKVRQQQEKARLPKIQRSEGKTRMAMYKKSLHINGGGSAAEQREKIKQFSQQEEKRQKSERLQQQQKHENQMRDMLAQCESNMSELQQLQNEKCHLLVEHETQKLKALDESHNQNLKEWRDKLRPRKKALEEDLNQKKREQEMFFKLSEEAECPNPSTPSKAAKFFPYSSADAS
Chain of UniProt O00238 (whole entry, looked up): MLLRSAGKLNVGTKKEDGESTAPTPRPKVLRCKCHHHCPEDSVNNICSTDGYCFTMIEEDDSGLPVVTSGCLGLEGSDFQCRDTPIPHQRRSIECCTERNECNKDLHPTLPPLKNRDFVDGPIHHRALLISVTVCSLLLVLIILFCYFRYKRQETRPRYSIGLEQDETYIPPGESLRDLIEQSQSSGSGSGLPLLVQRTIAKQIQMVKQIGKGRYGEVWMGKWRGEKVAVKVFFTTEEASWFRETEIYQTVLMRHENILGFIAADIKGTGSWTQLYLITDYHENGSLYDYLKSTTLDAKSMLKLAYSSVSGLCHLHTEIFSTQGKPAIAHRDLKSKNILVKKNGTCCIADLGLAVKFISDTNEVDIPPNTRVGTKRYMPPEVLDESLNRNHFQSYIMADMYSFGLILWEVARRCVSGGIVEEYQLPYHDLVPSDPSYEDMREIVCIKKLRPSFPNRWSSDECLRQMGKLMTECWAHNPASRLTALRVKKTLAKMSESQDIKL
Chain of UniProt P00519 (whole entry, unmodified, looked up): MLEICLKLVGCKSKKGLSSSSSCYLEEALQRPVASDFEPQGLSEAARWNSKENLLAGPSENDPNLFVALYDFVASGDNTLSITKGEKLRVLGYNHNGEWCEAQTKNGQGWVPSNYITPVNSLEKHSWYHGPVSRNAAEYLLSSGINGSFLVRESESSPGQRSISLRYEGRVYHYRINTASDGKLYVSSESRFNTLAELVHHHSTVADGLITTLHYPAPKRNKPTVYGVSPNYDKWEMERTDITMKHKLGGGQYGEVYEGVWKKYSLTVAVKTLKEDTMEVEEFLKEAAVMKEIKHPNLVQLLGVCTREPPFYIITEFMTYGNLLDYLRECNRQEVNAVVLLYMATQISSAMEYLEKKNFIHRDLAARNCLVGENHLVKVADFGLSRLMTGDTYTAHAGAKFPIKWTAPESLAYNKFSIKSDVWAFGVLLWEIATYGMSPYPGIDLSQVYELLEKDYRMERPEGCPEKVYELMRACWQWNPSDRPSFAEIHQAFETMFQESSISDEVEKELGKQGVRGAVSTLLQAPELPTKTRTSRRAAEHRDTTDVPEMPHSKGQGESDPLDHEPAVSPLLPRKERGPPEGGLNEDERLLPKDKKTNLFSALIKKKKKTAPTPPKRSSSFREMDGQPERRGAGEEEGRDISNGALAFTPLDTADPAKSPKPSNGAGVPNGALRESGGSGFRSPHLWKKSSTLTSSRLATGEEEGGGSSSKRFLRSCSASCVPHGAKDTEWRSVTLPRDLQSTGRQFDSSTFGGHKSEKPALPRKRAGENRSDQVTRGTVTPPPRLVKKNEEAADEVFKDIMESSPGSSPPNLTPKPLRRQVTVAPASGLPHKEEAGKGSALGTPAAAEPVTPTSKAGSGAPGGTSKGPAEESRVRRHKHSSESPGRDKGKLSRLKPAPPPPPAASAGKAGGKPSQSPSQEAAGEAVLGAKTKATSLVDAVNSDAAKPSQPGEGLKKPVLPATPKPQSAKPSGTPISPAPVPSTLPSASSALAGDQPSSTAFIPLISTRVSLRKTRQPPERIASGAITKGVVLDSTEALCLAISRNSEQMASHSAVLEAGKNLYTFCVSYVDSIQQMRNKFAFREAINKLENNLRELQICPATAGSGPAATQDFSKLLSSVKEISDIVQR
Chain of UniProt P35626 (whole entry, looked up): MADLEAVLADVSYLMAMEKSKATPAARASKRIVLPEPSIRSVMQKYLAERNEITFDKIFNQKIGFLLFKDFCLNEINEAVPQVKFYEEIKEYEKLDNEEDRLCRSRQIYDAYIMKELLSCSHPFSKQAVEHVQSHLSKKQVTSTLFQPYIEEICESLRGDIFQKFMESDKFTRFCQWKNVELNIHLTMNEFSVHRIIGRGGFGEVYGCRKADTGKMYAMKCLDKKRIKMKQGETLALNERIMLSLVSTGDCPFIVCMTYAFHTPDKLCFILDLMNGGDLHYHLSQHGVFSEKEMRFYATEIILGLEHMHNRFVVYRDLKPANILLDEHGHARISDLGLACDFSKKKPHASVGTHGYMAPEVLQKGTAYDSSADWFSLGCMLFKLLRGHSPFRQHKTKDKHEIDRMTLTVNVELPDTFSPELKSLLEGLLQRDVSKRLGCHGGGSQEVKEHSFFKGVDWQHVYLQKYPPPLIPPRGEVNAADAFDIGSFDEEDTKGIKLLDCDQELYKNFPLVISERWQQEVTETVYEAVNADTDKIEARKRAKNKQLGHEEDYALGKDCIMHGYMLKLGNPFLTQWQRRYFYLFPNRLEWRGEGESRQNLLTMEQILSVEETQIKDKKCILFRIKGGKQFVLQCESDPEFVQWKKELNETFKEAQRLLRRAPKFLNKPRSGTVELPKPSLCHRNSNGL
Chain of UniProt P05771 (whole entry, looked up): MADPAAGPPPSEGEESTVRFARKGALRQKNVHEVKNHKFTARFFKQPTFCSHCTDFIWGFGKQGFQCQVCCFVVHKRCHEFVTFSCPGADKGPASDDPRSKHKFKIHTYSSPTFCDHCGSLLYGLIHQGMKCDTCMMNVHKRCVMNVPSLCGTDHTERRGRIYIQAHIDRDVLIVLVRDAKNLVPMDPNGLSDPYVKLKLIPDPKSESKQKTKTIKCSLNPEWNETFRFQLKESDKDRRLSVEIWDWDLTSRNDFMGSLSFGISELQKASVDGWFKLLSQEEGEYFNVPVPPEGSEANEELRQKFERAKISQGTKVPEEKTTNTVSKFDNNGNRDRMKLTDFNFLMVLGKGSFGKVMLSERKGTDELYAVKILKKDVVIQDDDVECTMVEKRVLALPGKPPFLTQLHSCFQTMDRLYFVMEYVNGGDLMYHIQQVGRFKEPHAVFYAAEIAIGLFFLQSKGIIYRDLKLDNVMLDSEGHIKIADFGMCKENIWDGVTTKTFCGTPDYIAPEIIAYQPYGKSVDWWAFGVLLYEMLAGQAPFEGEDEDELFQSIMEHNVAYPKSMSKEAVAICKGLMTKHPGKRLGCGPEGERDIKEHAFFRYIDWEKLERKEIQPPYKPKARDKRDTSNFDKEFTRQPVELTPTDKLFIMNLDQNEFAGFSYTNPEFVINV
Chain of UniProt P48730 (whole entry, looked up): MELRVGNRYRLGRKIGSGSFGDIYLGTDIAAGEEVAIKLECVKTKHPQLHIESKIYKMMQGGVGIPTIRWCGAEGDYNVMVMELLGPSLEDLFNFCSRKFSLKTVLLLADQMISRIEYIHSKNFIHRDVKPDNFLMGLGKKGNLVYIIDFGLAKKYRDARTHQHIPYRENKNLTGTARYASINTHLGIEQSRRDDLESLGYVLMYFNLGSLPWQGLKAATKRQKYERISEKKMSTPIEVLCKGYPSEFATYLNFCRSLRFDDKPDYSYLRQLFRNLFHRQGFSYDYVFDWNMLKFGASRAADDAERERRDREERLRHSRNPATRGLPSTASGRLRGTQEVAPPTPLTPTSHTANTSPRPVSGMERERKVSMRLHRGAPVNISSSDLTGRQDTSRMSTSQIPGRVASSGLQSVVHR

Sample 1
SMILES: COc1ccc2cc(OCC3(C(=O)O)CN(C(=O)c4ccc(F)cc4)C3)ccc2c1
Method: competition with immobilised ligand
Concentration: 1 µM
target	effect on	remaining binding [%]
Dual specificity tyrosine-phosphorylation-regulated kinase 1B (DYRK1B, Homo sapiens, UniProt Q9Y463)	cell-free assay	100
RAC-beta serine/threonine-protein kinase (AKT2, Homo sapiens, UniProt P31751)	cell-free assay	100
Dual specificity protein kinase TTK (TTK, Homo sapiens, UniProt P33981)	cell-free assay	100
SRSF protein kinase 1 (SRPK1, Homo sapiens, UniProt Q96SB4)	cell-free assay	72
Serine/threonine-protein kinase STK11 (STK11, Homo sapiens, UniProt Q15831)	cell-free assay	100
Casein kinase I isoform alpha-like (CSNK1A1L, Homo sapiens, UniProt Q8N752)	cell-free assay	100
Mitogen-activated protein kinase kinase kinase 4 (MAP3K4, Homo sapiens, UniProt Q9Y6R4)	cell-free assay	65
Ephrin type-A receptor 8 (EPHA8, Homo sapiens, UniProt P29322)	cell-free assay	100
Phosphatidylinositol 4,5-bisphosphate 3-kinase catalytic subunit alpha isoform (PIK3CA, Homo sapiens, UniProt P42336)	binding	42
Casein kinase I isoform delta (CSNK1D, Homo sapiens, UniProt P48730)	cell-free assay	100
Serine/threonine-protein kinase SIK2 (SIK2, Homo sapiens, UniProt Q9H0K1)	cell-free assay	100
Bone morphogenetic protein receptor type-1B (BMPR1B, Homo sapiens, UniProt O00238)	cell-free assay	95
Tyrosine-protein kinase ABL1, non-phosphorylated (ABL1, Homo sapiens, UniProt P00519, F317L)	cell-free assay	100
Non-receptor tyrosine-protein kinase TYK2, JH1 (TYK2, Homo sapiens, UniProt P29597)	cell-free assay	89
Serine/threonine-protein kinase 10 (STK10, Homo sapiens, UniProt O94804)	cell-free assay	100
Serine/threonine-protein kinase 36 (STK36, Homo sapiens, UniProt Q9NRP7)	cell-free assay	89
Mitogen-activated protein kinase kinase kinase 1 (MAP3K1, Homo sapiens, UniProt Q13233)	cell-free assay	100

Sample 2
Cell line: mouse MPNST tumor cells
Method: high-content nuclear imaging
Measured: cell number
Concentration: 10 µM
Time: 12 h
Notes: mean of 2 replicates
Baseline: plate mean
Reading: higher = more cells
SMILES	nuclei count
Nc1nc(=O)c2nc(CNc3ccc(C(=O)N[C@@H](CCC(=O)O)C(=O)O)cc3)cnc2[nH]1	0.256 z-score
CNCC[C@H](Oc1cccc2ccccc12)c1cccs1	-3.75 z-score
O=c1cc(N2CCN(c3cccc(C(F)(F)F)c3)CC2)[nH]c(=O)n1C1CCCCC1	0.441 z-score
CCN(CC)C(=S)S	-0.463 z-score
NC(=O)c1ccc(-c2nc(-c3ccc4c(c3)OCCO4)c(-c3ccccn3)[nH]2)cc1	-2.31 z-score
O=C1C(=O)N(Cc2ccc(Cl)c(Cl)c2)c2ccccc21	-1.26 z-score

Sample 3
Structure (SMILES): CC(C)[C@H](CO)Nc1nc(Nc2cccc(Cl)c2)c2ncn(C(C)C)c2n1
Effect on: enzyme activity
Action: inhibitor
Concentration: 0.5 µM
Baseline: control
target	remaining activity
Mitogen-activated protein kinase 9 (MAPK9, Homo sapiens, UniProt P45984)	102%
TGF-beta receptor type-1 (TGFBR1, Homo sapiens, UniProt P36897)	103%
G protein-coupled receptor kinase 3 (GRK3, Homo sapiens, UniProt P35626)	99.1%
Calcium/calmodulin-dependent protein kinase kinase 2 (CAMKK2, Homo sapiens, UniProt Q96RR4)	70.9%
Serine/threonine-protein kinase OSR1 (OXSR1, Homo sapiens, UniProt O95747)	94.4%
Calcium/calmodulin-dependent protein kinase type II subunit delta (CAMK2D, Homo sapiens, UniProt Q13557)	102%
Serine/threonine-protein kinase Nek2 (NEK2, Homo sapiens, UniProt P51955)	102%
Tyrosine-protein kinase Lyn, isoform B (LYN, Homo sapiens, UniProt P07948)	82.5%
Protein kinase C alpha type (PRKCA, Homo sapiens, UniProt P17252)	115%
Protein kinase C beta type, isoform beta-I (PRKCB, Homo sapiens, UniProt P05771)	102%
TGF-beta receptor type-2 (TGFBR2, Homo sapiens, UniProt P37173)	98.1%
Serine/threonine-protein kinase 10 (STK10, Homo sapiens, UniProt O94804)	81.8%
STE20/SPS1-related proline-alanine-rich protein kinase (STK39, Homo sapiens, UniProt Q9UEW8)	99.2%
Serine/threonine-protein kinase Chk2 (CHEK2, Homo sapiens, UniProt O96017)	88.1%
Death-associated protein kinase 2 (DAPK2, Homo sapiens, UniProt Q9UIK4)	111%
Mitogen-activated protein kinase kinase kinase 3 (MAP3K3, Homo sapiens, UniProt Q99759)	102%
cAMP-dependent protein kinase catalytic subunit alpha (PRKACA, Homo sapiens, UniProt P17612)	102%
Cyclin-dependent kinase 5, with p25 (CDK5, Homo sapiens, UniProt Q00535)	3.87%
cGMP-dependent protein kinase 1, isoform beta (PRKG1, Homo sapiens, UniProt Q13976)	90.2%
Death-associated protein kinase 1 (DAPK1, Homo sapiens, UniProt P53355)	99.7%
Inhibitor of nuclear factor kappa-B kinase subunit beta (IKBKB, Homo sapiens, UniProt O14920)	107%
Inhibitor of nuclear factor kappa-B kinase subunit epsilon (IKBKE, Homo sapiens, UniProt Q14164)	99.2%

Other studies, line by line
Structure (SMILES)	target	action	method	cell line	concentration	quantity	result
O=C1CCC(N2Cc3c(ccc4c3OCCC43CCN(Cc4ccccc4)CC3)C2=O)C(=O)N1 (stereo not shown)	CRBN/Zinc finger protein Helios (Homo sapiens, UniProt Q96SW2+Q9UKS7)	degrader	HiBiT	HEK293	13.72 nM	protein remaining	80.7%

Repeated from above (sample 3):
target	remaining activity
TGF-beta receptor type-1 (TGFBR1, Homo sapiens, UniProt P36897)	103%
G protein-coupled receptor kinase 3 (GRK3, Homo sapiens, UniProt P35626)	99.1%
Calcium/calmodulin-dependent protein kinase kinase 2 (CAMKK2, Homo sapiens, UniProt Q96RR4)	70.9%
Serine/threonine-protein kinase OSR1 (OXSR1, Homo sapiens, UniProt O95747)	94.4%
Calcium/calmodulin-dependent protein kinase type II subunit delta (CAMK2D, Homo sapiens, UniProt Q13557)	102%
